Assay results pooled from the literature.
Compare with care: the assays were run in different laboratories.
Target: NAD-dependent protein deacylase sirtuin-6 (SIRT6, Homo sapiens, UniProt Q8N6T7)
UniProt Q8N6T7, sequence (whole entry, looked up): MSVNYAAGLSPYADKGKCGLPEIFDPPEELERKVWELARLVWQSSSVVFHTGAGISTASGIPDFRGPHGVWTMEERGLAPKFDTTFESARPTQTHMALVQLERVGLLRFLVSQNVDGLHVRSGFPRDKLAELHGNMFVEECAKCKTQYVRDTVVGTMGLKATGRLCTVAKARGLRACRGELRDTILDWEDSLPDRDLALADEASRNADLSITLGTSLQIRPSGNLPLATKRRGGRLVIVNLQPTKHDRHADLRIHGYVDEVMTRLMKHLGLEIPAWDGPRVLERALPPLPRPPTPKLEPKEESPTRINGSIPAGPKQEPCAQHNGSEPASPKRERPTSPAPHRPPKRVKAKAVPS

Cc1cc(F)ccc1NS(=O)(=O)c1ccc(NS(=O)(=O)c2cc(Cl)cc(Cl)c2)cc1C(=O)O
Kd (binding, MST): 278 µM

CC(=S)NCCCC[C@H](NC(=O)[C@H](CCCNC(=N)N)NC(=O)[C@H](C)N)C(=O)N[C@@H](CO)C(=O)N[C@H](C(=O)O)[C@@H](C)O
IC50 (enzyme activity, inhibitor): > 100 µM

NC(=O)c1ccc(C(=O)NOCc2ccccc2)cc1
IC50 (enzyme activity, inhibitor, fluorescence): 11.2 µM

NC(=O)c1cn(CC(=O)NC[C@H](NC(=O)CCc2nc(-c3cccnc3)no2)C(=O)Nc2ccccc2)c(=O)[nH]c1=O
IC50 (inhibitor, biochemical): 9.3 µM

NC(=O)c1ccc(C(=O)NOCc2ccc(Sc3cccc(Cl)c3)c(C(F)(F)F)c2)cc1
Kd (binding, SPR): 9.46 µM

CCCCCCCCCCCCCC(=S)NCCCC[C@H](NC(=O)[C@@H]1CCCN1)C(=O)N[C@@H](CCCCN)C(=O)N[C@H](C(=O)NCC(=O)O)[C@@H](C)O
IC50: 42.2 µM

NC(=O)c1cn(CC(=O)NC[C@H](NC(=O)CCc2nc(-c3cccnc3)no2)C(=O)NC2CCC2)c(=O)[nH]c1=O
IC50 (inhibitor, biochemical): 8.2 µM

Cc1cc(F)c(Br)cc1N1C(=O)c2cc(NS(=O)(=O)c3cc(Cl)cc(Cl)c3)ccc2S1(=O)=O
EC50 (enzyme activity, activator, fluorescence): 28 µM

For quick reference, copied from above:
CC(=S)NCCCC[C@H](NC(=O)[C@H](CCCNC(=N)N)NC(=O)[C@H](C)N)C(=O)N[C@@H](CO)C(=O)N[C@H](C(=O)O)[C@@H](C)O
IC50 (enzyme activity, inhibitor): > 100 µM
